Published values of several laboratories.
Each numbered part is a random draw from the data of one study; scales do not carry over between parts. Substitutions count along the parent as printed.

Sample 1
Target: Prothrombin, mature alpha-thrombin (F2, Homo sapiens, UniProt P00734)
Method: aptamer microarray, sandwich
Form: DNA with 2'F-ANA
Medium: in vitro
Concentration: 200 nM
Notes: whole 15-mer aptamer, many near background
With: Cy3 exosite-II aptamer, 400 nM
Direction: higher = stronger binding
Endpoint: mean fluorescence intensity
Strand: GGTTGGTGTGGTTGG
2'F-ANA at 1 3 5 6 7 8 10 12 14 15: 56.9 a.u.
2'F-ANA at 2 3 4 8 12 13 14 15: 301 a.u.
2'F-ANA at 3 5 6 12 13: 222 a.u.
2'F-ANA at 1 4 5 6 11 13 15: 64.2 a.u.
2'F-ANA at 1 2 3 5 6 9 10 13 14: 46.6 a.u.
2'F-ANA at 1 4 6 7 8 10 11 12: 56 a.u.
2'F-ANA at 1 3 4 6 7 8 9 10 11 13: 61 a.u.
2'F-ANA at 4 5 6 7 10 11 12 14: 44.1 a.u.
2'F-ANA at 6 7 8 9 10 15: 164 a.u.
2'F-ANA at 1 3 4 5 6 9 11 12: 83.7 a.u.
2'F-ANA at 1 3 4 5 11 12: 94.5 a.u.
2'F-ANA at 3 6 7 8 12: 1490 a.u.
2'F-ANA at 2 8 9 11 12 13 15: 510 a.u.
2'F-ANA at 2 4 6 8 10 13 15: 65 a.u.
2'F-ANA at 1 2 3 5 6 8 13 14: 49.2 a.u.
2'F-ANA at 1 3 4 5 7 8 9 10 14: 45.6 a.u.
2'F-ANA at 1 4 5 6 9 10 11 12: 50.6 a.u.
2'F-ANA at 2 4 7 8 10 12 13 14 15: 74.8 a.u.

Sample 2
Target: RNA binding protein fox-1 homolog 2, RRM domain, GST-SBP tag (RBFOX2, Homo sapiens, UniProt O43251-10, residues 100-194)
Method: RNA Bind-n-Seq
Form: RNA
Medium: in vitro
Concentration: 365 nM
Notes: natural RNA segment, single round, ends assumed
Baseline: no-protein control
Direction: higher = stronger binding
Endpoint: RBNS enrichment (R)
Constant ends, left off below: GGGAGUUCUACAGUCCGACGAUC … UGGAAUUCUCGGGUGCCAA
Target sequence (chain): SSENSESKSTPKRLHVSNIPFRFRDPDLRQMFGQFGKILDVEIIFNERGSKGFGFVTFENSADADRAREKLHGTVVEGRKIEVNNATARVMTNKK
CAUGGCCACCACGCCCGGCCAGUUGCUGCUUUUCUUAUCCCCACAGCUUCUAACCAUUAUGUGCUGAGUAAAUAAUGCUACCUAUGAUUUUAGAACGGAUUUCUCAGGUA: 0.625
UAACUAGAGGUAAUAAUUGGUAUUCAGGUAACUCAUUUACAGUCAUAAUGUGUUGUGAAAAUUUAAUCUUAAAAAUUAAAUUUUUAAACUAUGUGGGUCUGUGAAUUUCU: 0.453
AGGACAUAUUCACAGUGAACAUAACUGUAACAUAUAUGAAAGGCUUCUGGGACUUGAAAUCAAAUGUUUGGGAAUGGUGCCCUUGGAGGCAACCUCCCAUUUUAGAUGUU: 0.444
GUAGCUGCCCUAAUGUUGCAUAUUAGGCGGCGGGGGCAGAGAUAAGGGCCAUCUCUCUGUGAUUCUGCCUCAGCUCCUGUCUUGCUGAGCCCUCCCCCAACCCACGCUCC: 0.274
UAGUUUUUUUUUUUACUGAAACUUGUUUUUGUGAAUACUCUGUGCUUAGAAUUAAAUAUCACUUUCUUAUGAACAACAUAACUUCUUCAGAUUGUGUAUAUGAAAACAUU: 0.546
UCUGAUCCUGAGGCUAAGAAAGGGGAAGAGACCCUCAGGAGGCAGCUUCCACUCCAGGGCUCUUGAUCUCUGCUGGAUUGGGGGUGGCCACCUCAGAAACUUCCACCCUC: 0.599
GGGGCUGGAAGCCGAGCGCAUGCUGGGAGCGGUACUGUCAGAAGUGAGCCCAGUUAGUACCCCGCUGGCUCACUGCACGAGAGAGUCCUGCCCCGAGCCCUAGGUGGGGC: 9.07
AACUGUUCCAAGACUGACACAAGGAUGUUUCAAACUUGCCUCUGUCUGUAGAAAAUGUUAAAAAUACCAACUCACUUGGAAGGAAAAAUAAAAAUCACAAAGGUAUAUUG: 0.341
ACACAGGUAAAAUGGUUACCCUCCCUUCUUUCCUCCCCUCUGCCUUCAUGGAUCACCAACUCACGUCAUGUUUCCUUCUCUUUUCUCUGUGUGUGUGUUUAUUUAAGUUA: 1.53
CACCCUACGAAGGCCAUGCUGUGCAAACGUGCUCAGGAUCUCAGUAACGGGCCAACCCCCAACUACAGAUGACUUUUUAAUAUUGUAAAAUAUUUUCUGCUUUUUUGACU: 0.556
UGUUUCCACCAAUAGUGCCAAGAAGACACUGCCUGAUUCUUCCCCGGGAGGAGUGACUCCUCUGAAGAAGACAUGACUCAUGUUCAGUUGAGACCCCAGACUCUAGCCAC: 0.327
GGGGAAUGAGGGGCUGCAGGAAUCUCUGGAGAGCCUGGUGCUUCACGAUGCUGCUCUGGUGAUUCUUGUACCUAAUCUGGUGUGCUCACCAAUGAGUGAAAGGGAUCGUG: 1.07

Sample 3
Target: ABI1, truncated, D143A, DHFR fusion (Arabidopsis thaliana)
Method: DHFR PCA, deep sequencing
Medium: yeast
Notes: methotrexate growth selection, single substitutions
With: (+)-ABA 1.4 µM
Baseline: wild-type fitted maximum
Direction: higher = stronger binding
Endpoint: relative binding score
Parent: PYL1, truncated, DHFR fusion (Arabidopsis thaliana); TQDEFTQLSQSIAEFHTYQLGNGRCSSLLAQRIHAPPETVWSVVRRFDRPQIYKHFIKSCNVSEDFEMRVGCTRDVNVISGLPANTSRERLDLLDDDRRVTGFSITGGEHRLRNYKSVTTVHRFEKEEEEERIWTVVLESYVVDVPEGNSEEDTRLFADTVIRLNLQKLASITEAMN
N22R: 56%
V143G: -3.51%
L82V: 20.6%
L156M: 61.2%
P83E: -6.69%
M176I: 32.4%
T73A: 13%
V70L: 17.2%
Q31H: 25.7%
A158N: -8.39%
V143T: 32.6%
V78E: -5.56%
D95P: -3.15%
I52M: 57.9%
E125Y: 67.7%
A13L: 35.7%
V161Q: 18.4%
A170R: 57.1%
P83T: 4.24%
N22F: 41.8%
E129N: 58.7%
G102H: -8.88%
A158F: -34%
F5C: 52%

Sample 4
Target: Interferon regulatory factor 5, full length, phosphomimetic (IRF5, Homo sapiens, UniProt Q13568-2, residues 1-514, S451D/S453D/S456D/S462D)
Method: protein-binding microarray
Form: double-stranded DNA, one strand shown
Medium: in vitro
Concentration: 940 nM top
Notes: 60-bp whole probe
With: salmon DNA 0.4 mg/ml
Baseline: random background probes
Direction: higher = stronger binding
Endpoint: fitted relative affinity
Constant ends, left off below: GCCTAGCAC … GTCTTGATTCGCTTGACGCTGCTG
TTAGGTATCGACAGTGGGTTAGTGCTA: 4.53 z-score
GACGGTTTCAGTTCCGGGACGTGCTAG: 5.78 z-score
GACAATATCAGTATCGAGACGTGCTAG: 2.2 z-score
GACGGTATCGGACTGGGGAAGTGCTAG: 2.88 z-score
GACGAACTGAGTTTAGAGACGTGCTAG: -0.24 z-score
TGTCTGTCTGTCACCCGGACGTGCTAG: 0.508 z-score
TTAGATATTAGTTTCGATTAGTGCTAG: 9.62 z-score
TCATCTCAGAATCTCTCACTGTGCTAG: 1.21 z-score
TTAGAACTGGGGTATCGATTAGTGCTA: 2.67 z-score
TCAAGTCCCCTCTTCTGACTGTGCTAG: -0.129 z-score
GACGATCACAGTCTCGAGACGTGCTAG: 0.557 z-score
CTGGGGGCAGTTTCATGGCCGTGCTAG: 2.19 z-score
GACGGACTGCTTTTCCTGCCGTGCTAG: -0.494 z-score
GACGGACTGCTTCTCCTGATGTGCTAG: -0.508 z-score
GACGAACTGCGTTTCGAGACGTGCTAG: 0.107 z-score
CTGTTCTGCAGACTTCTGTCGTGCTAG: -0.156 z-score
TTGGGTCTCCTTTTCCTTTAGTGCTAG: 0.736 z-score
TCAGCTTTGCCTTCAGCACTGTGCTAG: 0.00879 z-score
GGACTGTCAGCCACTTTTTGGTGCTAG: -0.0256 z-score
TTAGGTTTCGGAGTGGGTTAGTGCTAG: 6.73 z-score
AGTCCGTGGATTGACCAGATGTGCTAG: -0.367 z-score
TTAGAGTTCAGTATCGATTAGTGCTAG: 5.35 z-score
TCATAACTTATTCTCTAACTGTGCTAG: 1.05 z-score
GACGATTTTAGTATCGAGACGTGCTAG: 3.44 z-score
GATTATAAAATGTGTGTTTGGTGCTAG: 0.401 z-score

Sample 5
Target: CCND3, cyclin fold, Cln2 fusion (human)
Method: yeast growth competition, sequencing
Medium: yeast
Notes: weak parent motif
Baseline: not given
Direction: higher = stronger binding
Endpoint: normalised enrichment score
Parent: E2F1 docking peptide (human); PPVKRRLDLETDH
PPVKRRLDLETSH [D12S]: 0.0788
PPVKRRLDLETQH [D12Q]: 0.203
PPVKRRLDLETYH [D12Y]: 0.269
PPVKRRPDLETDH [L7P]: 0.174
PPVKRRLDLATDH [E10A]: 0.179
PPVKRRLDLETDT [H13T]: 0.127
PKVKRRLDLETDH [P2K]: 0.0459
PPVKRDLDLETDH [R6D]: 0.027
PPVKRRLDLETHH [D12H]: 0.08
PPVKRRLDLHTDH [E10H]: 0.219
PPVKRRLDLEADH [T11A]: 0.0923
PIVKRRLDLETDH [P2I]: 0.0599
PPVKRRLDLETDR [H13R]: 0.117
CPVKRRLDLETDH [P1C]: 0.155
PPVKRRLDLERDH [T11R]: 0.109
PPVKDRLDLETDH [R5D]: 0.0958
PPVKRPLDLETDH [R6P]: 0.0953
PPVKRLLDLETDH [R6L]: 0.136
PPVKRRNDLETDH [L7N]: 0.115
PPVKRRLDLETDV [H13V]: 0.15
PPVKRRLDLETDF [H13F]: 0.144
PPVKRRLDLEHDH [T11H]: 0.0625
PGVKRRLDLETDH [P2G]: 0.169
PPVKRRLCLETDH [D8C]: 0.0458
IPVKRRLDLETDH [P1I]: 0.0923

Sample 6
Target: TEF, bZIP domain (human)
Method: DHFR protein complementation
Medium: yeast
Notes: single substitutions, most at no-binding floor
Baseline: wild-type JUN-FOS pair
Direction: higher = stronger binding
Endpoint: binding fitness
Parent: JUN, bZIP domain (human); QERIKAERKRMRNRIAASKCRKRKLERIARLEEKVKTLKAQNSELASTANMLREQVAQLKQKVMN; partner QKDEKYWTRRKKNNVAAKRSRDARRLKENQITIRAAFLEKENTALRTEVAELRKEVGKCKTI
I28E: -1.24 natural log
L45D: -1.34 natural log
E54R: -1.49 natural log
A57Q: -1.46 natural log
L45V: -1.49 natural log
K34V: -1.27 natural log
M51K: -1.48 natural log
E33G: -1.37 natural log
M51P: -1.56 natural log
A29K: -1.55 natural log
V35P: -1.52 natural log
L31G: -1.42 natural log
E32Q: -1.36 natural log
S47G: -1.38 natural log
L31N: -1.55 natural log
R30A: -1.25 natural log
K34L: -1.19 natural log
Q41E: -1.37 natural log
E54W: -1.36 natural log
V35H: -1.46 natural log
Q41R: -1.5 natural log
